Results collected from several papers.
Numbers after ± are the reported error.
PLG: Plasminogen (PLG, Homo sapiens, UniProt P00747)
PTGS1: Prostaglandin G/H synthase 1 (PTGS1, Ovis aries, UniProt P05979)
MAL12: Alpha-glucosidase MAL12 (MAL12, Saccharomyces cerevisiae S288c, UniProt P53341)
Adhesin FmlH lectin domain: Adhesin FmlH, lectin domain (Escherichia coli, UniProt Q1RBS0)
USP51: Ubiquitin carboxyl-terminal hydrolase 51 (USP51, Homo sapiens, UniProt Q70EK9)
VRK1: Serine/threonine-protein kinase VRK1 (VRK1, Homo sapiens, UniProt Q99986)

SMILES | target | assay | test system | setting | inhibition [%]
Cc1ccc(CN(C)C(=O)C(CCc2ccccc2)NC(=O)C(NC(=O)c2ccc(OCc3ccccc3)cc2)C(C)O)cc1 (stereo not drawn) | PLG | enzyme activity, inhibitor | – | 100 µM | -12
O=C1c2sc(-c3ccc(N4CCC(F)C4)nc3F)nc2CCN1c1cccnc1 (stereo not drawn) | sigma receptor, non-selective (human) | radioligand binding, BioPrint binding panel | – | 1 µM, with: agonist radioligand | 3
CN(Cc1ccc(/C=C/C(=O)NO)cc1)CC12CC3CC(CC(C3)C1)C2 | human Y1 receptor | agonist radioligand binding | – | 0.05 µM | -13
CC(C)Cn1c(SCC(=O)N2CCc3ccccc3C2)nc2cc(Cl)ccc2c1=O | HTR5A (Homo sapiens, UniProt P47898) | ligand displacement, radioligand | – | 10 µM | 12
CN(C)C/C=C/C(=O)Nc1ccc2nc(NCCCCCN(C)C)nc(NCCCCCCN(C)C)c2c1 | SETD2 (Homo sapiens, UniProt Q9BYW2) | enzyme activity, inhibitor, radiometric | – | 10 µM | 89
Cc1ccc(-c2nn(-c3ccc(S(C)(=O)=O)cc3)cc2C=NN=c2[nH]c(-c3ccc([N+](=O)[O-])cc3)cs2)cc1 | PTGS1 | enzyme activity | – | 1 µM | 27.8
COc1ncc2nc(C)n(Cc3ncc(S(N)(=O)=O)cc3F)c2c1-c1ccccc1 | Potassium voltage-gated channel subfamily KQT member 1, with KCNE1 (KCNQ1, Homo sapiens, UniProt P51787) | antagonist, cell-based | – | 10 µM | 11.5
O=c1ccc2ccc(O)c(Cn3cc4ccccc4n3)c2o1 | MAL12 | inhibitor | – | 25 µM | < 0
Cc1ccc(CNC(=O)[C@H](CCc2ccccc2)NC(=O)[C@H](CC(=O)NCC(C)(C)C)NC(=O)c2ccc(OCc3ccccc3)cc2)cc1 | PLG | enzyme activity, inhibitor | – | 100 µM | -13
CS(=O)(=O)c1ccc(-n2cc(C=NN=c3[nH]c(-c4ccc(Br)cc4)cs3)c(-c3ccc([N+](=O)[O-])cc3)n2)cc1 (mixture of isomers) | PTGS1 | enzyme activity | – | 10 µM | 55.3
C/C=C/C(=O)Nc1ccc2nc(NCCCCCN(C)C)nc(NCCCCCCN(C)C)c2c1 | KMT2C (Homo sapiens, UniProt Q8NEZ4) | enzyme activity, inhibitor, radiometric | – | 50 µM | 28
OC[C@H]1O[C@H](Oc2cccc3ccccc23)[C@H](O)[C@@H](O)[C@H]1O | Adhesin FmlH lectin domain | binding to desialylated mucin, ELISA competition | UPEC UTI89 | 100 µM | 28.1 ± 3.4
COc1ccccc1C1NCCc2cc(O)c(O)cc21 (stereo not drawn) | MAL12 | enzyme activity, inhibitor | – | 100 µM, DMSO solvent, with: pNPG substrate | 48.71 ± 0.34
COc1ccc(C[C@H](NC(=O)Cc2cccc(Oc3ccccc3)c2)C(=O)N[C@@H](Cc2c[nH]c3ccccc23)C(=O)NCc2ccc(C)cc2)cc1OC | PLG | enzyme activity, inhibitor | – | 100 µM | -15
COc1cc(-c2cn(C)c(=O)c3cnccc23)cc(OC)c1CN(C)C | Bromodomain testis-specific protein, BD1 (BRDT, Homo sapiens, UniProt Q58F21) | – | – | 1 µM | -16
O=[N+]([O-])c1ccc(O[C@@H]2O[C@H](CO)[C@H](O)[C@H](O)[C@H]2O)cc1 | Adhesin FmlH lectin domain | binding to desialylated mucin, ELISA competition | UPEC UTI89 | 10 µM, with: desialylated bovine submaxillary mucin | 13.7 ± 5.3
COCC(=O)N1CCc2cc(-c3csc(NC(=O)c4cc(OC)cc(OC)c4)n3)ccc21 | rolipram binding site (PDE4), rat | radioligand binding | – | 10 µM | 8
Cc1ccc(-c2nn(-c3ccc(S(C)(=O)=O)cc3)cc2C=NN=c2[nH]c(-c3ccc(Br)cc3)cs2)cc1 (mixture of isomers) | PTGS1 | enzyme activity | – | 0.1 µM | 17.6
O=C1CO[C@H](CNC(=O)C2(c3ccc(Cl)cc3)CC2)CN1C1Cc2ccccc2C1 | CXCR5 (Homo sapiens, UniProt P32302) | β-arrestin recruitment, antagonist | – | 1 µM | -2
COc1ccc(S(=O)(=O)c2c(O)c3ccc(C(=O)Nc4ccc(F)cc4)cc3[nH]c2=O)cc1 | USP51 | enzyme activity, inhibitor | – | 1 µM | 22 ± 5

SMILES | target | assay | test system | setting | inhibition [%]
O=[N+]([O-])c1ccc(S[C@@H]2O[C@H](CO)[C@H](O)[C@H](O)[C@H]2O)cc1 | Adhesin FmlH lectin domain | binding to desialylated mucin, ELISA competition | UPEC UTI89 | 100 µM | 72.5 ± 0.9
CCNc1nc(NCC)n2c(SCC(=O)c3ccc(OC)cc3)nnc2n1 | USP51 | enzyme activity, inhibitor | – | 1 µM | 18.9 ± 7.1
Cc1cc(=O)oc2cc(O[C@@H]3O[C@H](CO)[C@H](O)[C@H](O)[C@H]3O)ccc12 | Adhesin FmlH lectin domain | binding to desialylated bovine submaxillary mucin, inhibitor, ELISA competition | UPEC UTI89 | 1 µM | 8.7 ± 3.1
O=C1c2sc(-c3ccc(N4CCC(CO)CC4)nc3F)nc2CCN1c1cccnc1 | PTGFR (Homo sapiens, UniProt P43088) | ligand displacement, radioligand | – | 1 µM | -1
NC(=O)c1cccc(-c2cnn3ccc(Nc4ccc(N5CCOCC5)cc4)nc23)c1 | crk3, with CYC6 (Leishmania mexicana, UniProt O15851) | IMAP fluorescence polarisation | – | 30 µM, with L. major CYC6 | 93
OC[C@H]1O[C@H](Oc2ccccc2-c2ccccc2)[C@H](O)[C@@H](O)[C@H]1O | Adhesin FmlH lectin domain | binding to desialylated mucin, ELISA competition | UPEC UTI89 | 100 µM | 19.2 ± 3
COc1cc(-c2nc3c4sc5nc(C)cc(C)c5c4ncn3n2)cc(OC)c1OC | USP51 | enzyme activity, inhibitor | – | 1 µM | 3.7 ± 0.6
CC(=O)O[C@@]1(C)CN(Cc2ccccc2)[C@H]2C[C@@H]1CC(=O)[C@@H]2C | Mu-type opioid receptor (Cavia porcellus, UniProt A0ACM8Q262) | binding, radioligand binding | guinea pig brain membranes | 1 µM, with: [3H]DAMGO | 16
C[Si]1(C[C@H](CN)CC(=O)O)CCCC1 | glycine receptor, rat | binding, radioligand binding | – | 70 µM | 12
CS(=O)(=O)c1ccc(-n2cc(C=NN=c3[nH]c(-c4ccc([N+](=O)[O-])cc4)cs3)c(-c3ccc([N+](=O)[O-])cc3)n2)cc1 | PTGS1 | enzyme activity | – | 0.01 µM | 3.49
COc1c(C2CC(=O)Nc3c2ncn3-c2cccc(C(F)(F)F)c2)cc2c(c1OC)OCO2 (stereo not drawn) | USP51 | enzyme activity, inhibitor | – | 1 µM | 8.4 ± 2.6
NC(=O)[C@@H](O)C[C@H]1CCc2sc3ncnc(O[C@H]4CC[C@H](N5CCOCC5)CC4)c3c21 | VRK1 | enzyme activity, inhibitor | – | 10 µM | 19
OC[C@H]1O[C@@H](Oc2cccc3cccnc23)[C@H](O)[C@@H](O)[C@H]1O | Adhesin FmlH lectin domain | binding to desialylated mucin, ELISA competition | UPEC UTI89 | 10 µM, with: desialylated bovine submaxillary mucin | 48.1 ± 2
CCOC(=O)NCc1ccc(O[C@@H]2O[C@@H](C)[C@H](O)[C@@H](O)[C@H]2O)cc1 | MAL12 | inhibitor | – | 100 µg/mL, 0.4167 h, with: p-nitrophenyl glucoside substrate | 25.9 ± 2.34
C[Si](C)(C)C[C@H](CN)CC(=O)O | BDKRB1 (Homo sapiens, UniProt P46663) | ligand displacement, radioligand | – | 250 µM | 3
COc1cc(C(=O)Nc2cccc(NC(=O)c3cc(F)c(F)cc3Cl)c2)cc(OC)c1OC | USP51 | enzyme activity, inhibitor | – | 1 µM | 33.5 ± 14.9
C/C1=C\CC/C(C)=C/CC(C)(C)/C=C/C1 | Trpv1 (Rattus norvegicus, UniProt O35433, S512A/T550A/Y511A) | ion current, inhibitor, outside-out patch clamp | – | 100 µM, triple vanilloid-site mutant, with: pH 5.5 activation | 93 ± 2
Cn1c(=O)c2c(nc(Oc3ccc(Oc4ncc(Cl)cc4Cl)cc3)n2Cc2cccc(Cl)c2)n(C)c1=O | USP51 | enzyme activity, inhibitor | – | 1 µM | 1.9 ± 0.6
CN1CC[C@@H](COc2cnc(C#N)cc2-c2ccn3nc(NC(=O)C4CC4)cc3c2)C1 | VRK1 | enzyme activity, inhibitor | – | 1 µM | 4

Some of these lines once more:
SMILES | target | assay | test system | setting | inhibition [%]
COc1cc(-c2cn(C)c(=O)c3cnccc23)cc(OC)c1CN(C)C | Bromodomain testis-specific protein, BD1 (BRDT, Homo sapiens, UniProt Q58F21) | – | – | 1 µM | -16
NC(=O)[C@@H](O)C[C@H]1CCc2sc3ncnc(O[C@H]4CC[C@H](N5CCOCC5)CC4)c3c21 | VRK1 | enzyme activity, inhibitor | – | 10 µM | 19
OC[C@H]1O[C@H](Oc2ccccc2-c2ccccc2)[C@H](O)[C@@H](O)[C@H]1O | Adhesin FmlH lectin domain | binding to desialylated mucin, ELISA competition | UPEC UTI89 | 100 µM | 19.2 ± 3
COCC(=O)N1CCc2cc(-c3csc(NC(=O)c4cc(OC)cc(OC)c4)n3)ccc21 | rolipram binding site (PDE4), rat | radioligand binding | – | 10 µM | 8
COc1ccc(S(=O)(=O)c2c(O)c3ccc(C(=O)Nc4ccc(F)cc4)cc3[nH]c2=O)cc1 | USP51 | enzyme activity, inhibitor | – | 1 µM | 22 ± 5
O=c1ccc2ccc(O)c(Cn3cc4ccccc4n3)c2o1 | MAL12 | inhibitor | – | 25 µM | < 0
